Measured values from different studies.
A part holds a random share of what one study measured. Substitutions count along the parent as printed.

Block 1
Target: ABI1, truncated, D143A, DHFR fusion (Arabidopsis thaliana)
Method: DHFR PCA, deep sequencing
Medium: yeast
Notes: methotrexate growth selection, single substitutions
Together with: (+)-ABA 0.39 µM
Relative to: wild-type fitted maximum
Reading: higher = stronger binding
Quantity: relative binding score
Starting sequence: PYL1, truncated, DHFR fusion (Arabidopsis thaliana); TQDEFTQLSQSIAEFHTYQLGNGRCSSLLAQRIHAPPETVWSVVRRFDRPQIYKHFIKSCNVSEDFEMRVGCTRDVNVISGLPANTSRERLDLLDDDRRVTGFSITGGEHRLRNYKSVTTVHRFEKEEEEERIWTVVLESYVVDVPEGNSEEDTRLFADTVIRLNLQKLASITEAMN
V137T: -2.2%
N149Q: 59.3%
V44A: 13.7%
C25Q: -6.81%
M68C: 18.2%
E151S: 34.1%
E128I: 21.2%
A35C: 14.1%
V76K: -4.84%
F157A: 7.55%
R98L: 23.5%
G108N: -10%
S27A: 4.73%
Q7K: 36.8%
L93V: 57.6%
V78K: 0.684%
A158P: -27.8%

Block 2
Target: RNA binding protein fox-1 homolog 2, RRM domain, GST-SBP tag (RBFOX2, Homo sapiens, UniProt O43251-10, residues 100-194)
Method: RNA Bind-n-Seq
Form: RNA
Medium: in vitro
Concentration: 365 nM
Notes: natural RNA segment, single round, ends assumed
Relative to: no-protein control
Reading: higher = stronger binding
Quantity: RBNS enrichment (R)
Shared flanks, not repeated: GGGAGUUCUACAGUCCGACGAUC … UGGAAUUCUCGGGUGCCAA
Construct (chain): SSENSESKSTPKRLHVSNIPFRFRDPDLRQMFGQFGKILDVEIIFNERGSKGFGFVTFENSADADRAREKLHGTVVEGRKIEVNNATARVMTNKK
AGAGUAUUUAUGGGAAAGGCUGCCCAUGACCAGUGUGACUCAAAGCAAUGUGAUCUCCCUUGAUUCAAACGCACACCUCUGCCCUGCUGGAGAAGGUUUAGGGCCAUGUC: 2.34
CCCAGGUAGGGGUGGGGCUGCCCUUCAGCGCAGCAGUGUGGGCUGCAUUUCUGUUCACCAGCCUCCCAAACACGGCCCAGCCCCAGCCAGCCCCAGCCAGCCCCAGCGGC: 0.302
CAUAAAAGCAGAAGGUGUGCUAUUCACAGUACCAUGCGAGUAGCCCACAGUUAAUUCCCGGCAGAUUCUUUGGCUGUGUUUUAUCUUUAAUGAACGUUUCUGACUAAUAU: 0.332
CCAUGGGAACGGAUGUGGAAGGAAGAACUGUCACCCUCUUAAGGCCCAGGGUCGGAGCCCAGGGCCUCUCCCUUCCUGUCGUUCAAUGGACGUGGUGGUGGCUGUUCCAC: 0.327
UGCUGUGGGAGUUUCUAGAGAAGUACCCUUCAGCUGAAGUGGCCCGAGCUGCCGACUGGAGGGACGUGUCGGAGCUUCUCAAGCCUCUUGGUCUCUACGAUCUCCGUGCA: 4.15
GCACUCUCAUCUGCAGGACUCUGCUUGAUCCUCUGCUUCAUAGCCCUUCCCCAUCUCUCCUCACCAUUCUGCCUACAAGGCUUCUAGCAGCACGGGGGCCCGGAGGGAGA: 3.44
UGCUGGUUCCAUGCCUGCUCUCGAGGCAGCAGUGGGUUCAGGCCCAUCAGCUACCCCUGCAGCUGGGGAAGACUUAUGCCAUCCCGGCAGCGAGGCUGGGCUGGCCAGCC: 0.266
AUUAUUUUAAGUAAUGUUAAUUGAAAAAAUUUUUUCUUUUUGACAAUAUAAAAAACAUUUUAAAUUUCCUAGAAAUGUCUUCAGGGUAAUGCCAAUUUAAGAUCUCUCUU: 0.628
ACUUUUCCUCGUGUGUUGUUGACUCUUUAAACAUAACAGGUAUUAUUAAAAUUAACUGUUAACUGACCCAGCCCAUUCUCUCUCGUUUUGCCCUCGUUUUGCCACUGUAU: 1
UUCUUAAGCACAAUUGGGCUUCUUCCAUCUCCAGGUUUUCUGCCAUUCUUAACCAAGGCUGCCUCUUCCAACAGGGCGGGAAUCAGACCUACUCCCCUAGGUCACAACUC: 0.441
AGCUGGACAGAAAAGGGGCAGACACACCGAGGAUGCGAUUUAAAAUAAAUGCAGAUGUUUACUUGGAUGGAGCCUGUGGAGGCUCAGUGUUGACUCUCAUCUAGAAUGGU: 5.01
UGGCUGGUGUUGGUGACCCUGAUGUAUGGCAGAGCCCUUGGGGAGAAGAGACCCUGAGGGAAGGGCAAGGCUUUUCCUUUUUGGCUCUGGUUCCCAGGGUCAUCCGCCUU: 0.407

Block 3
Target: Hepatocyte nuclear factor 3-alpha (Foxa1, Mus musculus, UniProt P35582, residues 1-468, full length assumed)
Chain of UniProt P35582 (whole entry, looked up): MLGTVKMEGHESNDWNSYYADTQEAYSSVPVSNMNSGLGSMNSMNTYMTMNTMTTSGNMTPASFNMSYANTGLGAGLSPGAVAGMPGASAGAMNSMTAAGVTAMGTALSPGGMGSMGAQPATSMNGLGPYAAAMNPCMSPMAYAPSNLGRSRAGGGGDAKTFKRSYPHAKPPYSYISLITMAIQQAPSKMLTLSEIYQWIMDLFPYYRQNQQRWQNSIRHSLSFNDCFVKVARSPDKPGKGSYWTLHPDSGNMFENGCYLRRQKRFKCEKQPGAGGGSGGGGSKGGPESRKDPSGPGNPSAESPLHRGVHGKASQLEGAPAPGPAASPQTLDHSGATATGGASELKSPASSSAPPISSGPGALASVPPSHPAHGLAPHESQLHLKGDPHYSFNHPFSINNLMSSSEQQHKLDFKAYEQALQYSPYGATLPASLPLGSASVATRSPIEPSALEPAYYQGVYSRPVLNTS
Method: EMSA with sequencing
Form: double-stranded DNA, one strand shown
Medium: in vitro
Concentration: 10 and 20 nM
Notes: whole designed probe, mean of two concentrations, ends assumed
Relative to: negative control set to 0
Reading: higher = stronger binding
Quantity: normalised bound fraction
Shared flanks, not repeated: GTGAGCGGTGCCCATTGATGGGGAAC … TTTCACTGGGATCGTGGGGAC
CAGTATTTTTCTTTTTACATTAATATTCCCTTAAAAACATTACCTGGAATGATCCTCTGTGCATGGAGAAGTACACATTCTGCAATGATAAGTGTAAACAAAACTGAACATTTTATTTCTCCCTTTTTGCTATTCTCTGACCTGCAGTGCATTCCAATACTTTCTGCTTTCAGTTAACACGCAGTTCTTTATT: 0.338 ratio
TAAGTAATGCATTTCTGTGATTCAACAAAGATCTATCTCACAGAGATATCTCATTCTGCTCCCTTCCCCCAGTCACATTCTTCTTTGTCTTATGTAAACATGTCTTGTTTTTTTTTGTTTGCTTCTTGTTTATCCTTCAAGTGGGTTTTTTGTTTTTTGTTCTGTCACTATTATATATTTCTCTTCACTCCTG: 0.504 ratio
AATGTGAGCCATCTCCCGACACTCCGAGTTAATCTATAATGGAGTATTAGCACTGAGACACTGTATATGCCCCTGTCATCCTTTCCCCCAAAGTAAACAAGGGAAAGCCACACAGGCTTTAACACATAATACCTTACTTAATTCCATCAAACAGTGTCCTGAGACTCAGGATTGATAAAATACTGCAGTTCAA: 0.432 ratio
TTATGATCTGAGTATATATAGTAAGTACCTCCCCTTTCAGGGTAAGGCAGTAGGTAATGGTGAACAGGGAAGCAAAAGGTGACTCAGGTTGAGTAATCTACACCAAGCATATCTGACTCAAGGAATGCTTCAGAGGCCAGGGGTGCATGCCTGTAATCCCAGCACCTTGGAAGGCTGACACAGGAGGATCACT: -0.017 ratio
AAAGAAAGCAGCTCACTGGGTGAAGGACCTTGAGAAAGAGATGAACATTTCCTCTCTTGAGACACAGGACAAACAAGGTCACGCCTGAGCTCGGCAATCTAGGACTTCGGTGCCTGCCTACGGCGCCATTGCGCCCTCTAGTGGCTGCTGAGGAACCGCTGTCCAGCCCGAAGCTCACAGAGCCCCGTTCAGG: 0.0133 ratio
ATCTTCCCCCTCTTCCTTGCCCCACCAGCTCACCTTCCCGGGTTGTTTACTTTGAGGAAAATAAATAAAGCCGGCATTCGTTAACCCTCTTCTGGCGCAAACTGCACATTGGTCTGGATGAATCATGGTCCTTTGGCGACGCCAGGCTCCGGGAGAGCAAAGCACCGTGTCAGGGCCATGATCCGGGGTGGCC: 0.348 ratio
CCATACATCTTTATTTTAAGGAATATGATATGTAAAATCCTGGTCGATTACTTTAAAATATCGATAAATACCAAGTGTCTAAGCTATAGCTTAAGTAAACAAGGGAAGTAAGGACTTTGGCATTCTTAGCTCAAATACTTTTGACCTGTATGTACACATGATATCTTTTTAAAATTTTGTTTAGAAAATGCAA: 0.5 ratio
TGTCCTGGAAGAAGTCCTTATGTGTATGATCTTACTGTAATACCCAGTCTTTATGGACCCATGGCAGTTGACCACTATACTTCATGTACAAAGTAATCTTAGGAATGGGAAATGGTATTACTTTGAAAATGGCAACGTGTCCCTAGACTGTTAAGGATCAAATAGTGATGCAAGCAGCATATGTGCTTTTTAA: -0.00934 ratio

Block 4
Target: RING finger protein unkempt homolog, zinc fingers 1-6, GST-SBP tag (UNK, Homo sapiens, UniProt Q9C0B0, residues 30-357)
Chain of UniProt Q9C0B0 (30-357, looked up): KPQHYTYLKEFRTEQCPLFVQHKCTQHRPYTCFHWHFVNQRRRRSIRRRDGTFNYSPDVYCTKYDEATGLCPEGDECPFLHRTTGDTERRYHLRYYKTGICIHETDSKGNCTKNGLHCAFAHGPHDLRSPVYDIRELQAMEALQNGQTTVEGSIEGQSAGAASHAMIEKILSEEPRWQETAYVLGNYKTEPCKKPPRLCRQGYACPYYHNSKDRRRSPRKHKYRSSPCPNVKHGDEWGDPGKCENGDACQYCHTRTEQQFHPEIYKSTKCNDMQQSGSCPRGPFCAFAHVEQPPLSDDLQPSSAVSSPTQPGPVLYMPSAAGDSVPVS
Method: RNA Bind-n-Seq
Form: RNA
Medium: in vitro
Concentration: not given
Notes: RNA with constant flanks, human-mouse chimeric sites, ends assumed
Relative to: input RNA pool
Reading: higher = stronger binding
Quantity: bound/input enrichment
Shared flanks, not repeated: GGGAGUUCUACAGUCCGACGAUC … CAACAGAGGAUUGAGCAUCA
GUGACUGGUGUUAAGAUUUCCCCUCAGCAAAGAAGUGCAGUAGUCACAAUAAUCCCUUCUGUGGUGAGUGCCAGUCAGAUUGUGGAGCUGGUUCCAGACCUCAGUUUAGACAUGGGAACU: 0.237 ratio
GUGACAGGUGUUAAGAUUUCCCCUCAGCAAAGAAGUGCAGUAGUCACCAUAAUUCCAUCUAUAGUGAGUGCCAGUCAGAUUGUGGAGCUGGUCCCAGACCUCAGUUUAGACAUGGGAACU: 1.03 ratio
GGGACUGAUUCAUCCCAAGGACAGGCCACCCCAUUUGAUGCCUGGACUGAUGACAGUAUGUUAGGGCCUAGUCAAAAUGUUGAAGCUGAGUCAAUUCAGGAUGCCAUGAGUAUGGAAGAG: 0.496 ratio
AAAUCGUGUGUGUCCAAUAUUGAAAGUGCUUUAUCUACACUCCAGUAUGUAAGCAGUAUAGUAGUUUCUUUAGAGAAUAGGUCAGCCAUUGUGAAGUAUAAUGCAAGCUUAGUCACUCCA: 6.66 ratio
UAAAUUAGGGCUGCCGUUUUCUGUUUCUCCCUGGGCUGCGGAAAGCCAGAAGAUUUUAUCUAGCUUAAACCAGGCUGCUGGUGUUCCCUCUUUUUUUCCACGAGGGUUUUUUUUCCAGCA: 0.347 ratio
UCAACAGACAACAUCAAAUACCAGCCUAAGGGGGGUCAGGUACAAAUUGUUACCAAGAAAAUAGACCUAAGCCAUGUGACAUCCAAAUGUGGCUCUCUGAAGAACAUCCGUCACAGGCCA: 0.639 ratio
AUAAAGGCUAUGUUGAGUGGUCCAGGUCAGUUUGCUGAGAACGAAACCAACGAGGUCAAUUUUAGAGAGAUCCCCUCACAUGUGCUAUCAAAAGUGUGCAUGUAUUUUACGUACAAGGUC: 0.191 ratio
CUGUGACCACAAGAUCCUACCUGAGUGGCAGCUGAAGUUGACUCCCUCUCCUUGCCUGAACCCCCCCCCACUGCCCCUUGAGUCCACGCAGAAUUCCGAGAUGUUGCCUCUGCACGGUUC: 1.03 ratio
CAGUCCCCGUGUCCCAGUGCAGGACGAUGUGAACAAAAACUCAAAGCGGCCCUUUCUUUGUAGUUCUUGAUUCUCGAAAUGUGCUAUUAUUGUUUGUCUUUUUUUUUAAAAGAAAAGAGA: 0.235 ratio
ACUCAGAGAUCCACCUCCCAAAGUGCUGGGAGUAAAGGUGUGGCCACCACACCUAACUUCAUAGACAUAUAUUUUUUUUAAUAUGAAUCUUCCUGUUCGUCCAGGGAGCAAGAACGGGUU: 3.21 ratio
CUGUGUGUGCUGAAUAAAUGGCUUGUAAGAACUGUCCUCCAAGCUGUAACCCAUGCUGUUAUUAUAGUUGCUGCAAAAUGUCUCUUAUGAUAUUGAUUUUAUUUGUUAACUGAAGGUCUC: 0.411 ratio

A few entries again (block 4):
GGGACUGAUUCAUCCCAAGGACAGGCCACCCCAUUUGAUGCCUGGACUGAUGACAGUAUGUUAGGGCCUAGUCAAAAUGUUGAAGCUGAGUCAAUUCAGGAUGCCAUGAGUAUGGAAGAG: 0.496 ratio
AAAUCGUGUGUGUCCAAUAUUGAAAGUGCUUUAUCUACACUCCAGUAUGUAAGCAGUAUAGUAGUUUCUUUAGAGAAUAGGUCAGCCAUUGUGAAGUAUAAUGCAAGCUUAGUCACUCCA: 6.66 ratio
UAAAUUAGGGCUGCCGUUUUCUGUUUCUCCCUGGGCUGCGGAAAGCCAGAAGAUUUUAUCUAGCUUAAACCAGGCUGCUGGUGUUCCCUCUUUUUUUCCACGAGGGUUUUUUUUCCAGCA: 0.347 ratio
UCAACAGACAACAUCAAAUACCAGCCUAAGGGGGGUCAGGUACAAAUUGUUACCAAGAAAAUAGACCUAAGCCAUGUGACAUCCAAAUGUGGCUCUCUGAAGAACAUCCGUCACAGGCCA: 0.639 ratio
AUAAAGGCUAUGUUGAGUGGUCCAGGUCAGUUUGCUGAGAACGAAACCAACGAGGUCAAUUUUAGAGAGAUCCCCUCACAUGUGCUAUCAAAAGUGUGCAUGUAUUUUACGUACAAGGUC: 0.191 ratio
CUGUGACCACAAGAUCCUACCUGAGUGGCAGCUGAAGUUGACUCCCUCUCCUUGCCUGAACCCCCCCCCACUGCCCCUUGAGUCCACGCAGAAUUCCGAGAUGUUGCCUCUGCACGGUUC: 1.03 ratio
CAGUCCCCGUGUCCCAGUGCAGGACGAUGUGAACAAAAACUCAAAGCGGCCCUUUCUUUGUAGUUCUUGAUUCUCGAAAUGUGCUAUUAUUGUUUGUCUUUUUUUUUAAAAGAAAAGAGA: 0.235 ratio
